Published values pooled from the literature.
Each line is one published result; not all experiments were run side by side. Values joined by “and” are separate records of one study, mostly repeats; a detail may differ. Numbers after ± are the reported error.

For `O=C(O)c1cc(Cl)ccc1S(=O)(=O)NCCCCN1C(=O)c2cccc3cccc(c23)C1=O`, the surviving enteroids was 83.7% (mouse small intestinal enteroids; 1 µM, day 1, 24 h pretreatment, together with: 5 Gy irradiation).
`CC(C)NCC(O)c1ccc(O)c(O)c1` (stereo not drawn) has a sarcomere length of 1.6 µm (ventricular cardiomyocytes, C57BL/6 mouse; dose not given, 0.476 s).
With `Cc1coc([C@H]2C[C@H]3[C@@H](CF)SC(N)=N[C@@]3(c3ccc(F)cc3F)CO2)n1` the Aβ40 level was 1.11 ng/mL (item: Aβx-40; Mus musculus wild-type, cerebrospinal fluid; subcutaneous, 80 mg/kg, 7 h).
`Cn1cc(Nc2nccc(-c3ccc4c(c3)CN(C3COC3)CC[C@H]4NC(=O)c3cn(C(C)(C)C)nn3)n2)cn1` — result for “pathway activation z-score”: 3.87 (item: HGF Signaling; splenic B cells, mouse; in vivo, 30 mg/kg, IgD-activated B cells; relative to: vehicle, positive = activation).
For `CSCCNc1nc(SCCC(F)(F)F)nc2c1ncn2[C@@H]1O[C@H](COP(=O)(O)OP(=O)(O)C(Cl)(Cl)P(=O)(O)O)[C@@H](O)[C@H]1O`, “patients with IPA above 90%” read 0% (light transmittance aggregometry; human patients, platelet-rich plasma; dose not given, 3 h, together with: ADP 20 µM; relative to: patients).
`Cc1noc(C)c1-c1cc(C(O)(c2ccccn2)c2ccccn2)c2nc(C3CC3)[nH]c2c1` has a maximum inhibition of 46% (item: CCR2 expression; human, peripheral blood; 4 mg, day 8, 1604 study).
Under “DPPH radical scavenging”, `Cc1cc(C(C)(C)C)c(O)c(C(C)(C)C)c1` is recorded as 60 ± 0.38% (DPPH; methanol; concentration not given, 60 min).
`COc1ncc(-c2nc3c(n2C(C)C)[C@H](c2ccc(Cl)cc2)N(c2cc(Cl)cn(C)c2=O)C3=O)c(OC)n1` — result for “best overall response”: 0% (International Working Group criteria; human acute myeloid leukemia patients; oral, 20 to 30 mg, response Unknown, low-dose).
`Cc1nc(C#Cc2cccnc2)cs1`: “spontaneous population spike amplitude” 100 ± 5.4% (field recording; rat hippocampal slice CA3; 10 µM, 10 min; relative to: baseline).
With `CCCCC1(CCCC)CN(c2ccccc2)c2cc(SC)c(OCC(=O)N[C@@H](C(=O)NCC(=O)O)c3ccccc3)cc2S(=O)(=O)C1` the plasma C4 was 41.8 ng/mL (item: 7α-hydroxy-4-cholesten-3-one; human, plasma; 2.5 mg once daily, day 2).
`O=C1CCc2ccc(OCCCCN3CCN(c4cccc(Cl)c4Cl)CC3)cc2N1` gave a hazard ratio of 2.08 (treatment discontinuation, Cox regression; human patients, CYP2D6 IM/PM/UM; dose not given, 3 months, genetic phenotype only; relative to: CYP2D6 normal metabolizers).
`CCCCCN1C[C@H](O)[C@@H](O)[C@H](O)[C@@H]1CO` — result for “genomic disease score”: 0.47 (RNA sequencing, item: Hallmark interferon alpha genes; Hexb-/- mouse, hippocampus; 300 mg/kg/day; direction not given).
`C[C@@H]1CCC[C@H](n2cnc(-c3cc(Cl)ccc3-n3cc(Cl)nn3)cc2=O)c2cc(ccn2)-c2c(cnn2C(F)F)NC1=O` — result for “concentration for aPTT prolongation”: 270 nM (dog plasma; IC1.5× aPTT, Actin FS reagent).
`CC1=CC(=O)CC(C)(C)[C@@]1(O)/C=C/C(C)=C\C(=O)O`: “log2 fold change” 4.2 (RNA-seq, item: AT1G02205; Arabidopsis thaliana Col seedlings; dose not given; relative to: DMSO).
The Aβ40 level of `Cc1cc([C@H]2C[C@H]3[C@@H](CF)SC(N)=N[C@@]3(c3ccc(F)cc3F)CO2)on1` is reported as 0.85 ng/mL (item: Aβx-40; Mus musculus wild-type, cerebrospinal fluid; subcutaneous, 100 mg/kg, 9 h).
`CC(=O)Oc1cc2c(s1)CCN(C(C(=O)C1CC1)c1ccccc1F)C2` (stereo not drawn) — result for “patients with IPA above threshold”: 4.8% (platelet aggregation, light transmittance aggregometry; human, platelet-rich plasma; 4 to 6 h, IPA above 90 %, together with: ADP 20 µM; relative to: patients).
Under “log2 fold change”, `N#Cc1ccn2c(-c3ccncc3)c(-c3ccc(F)cc3)nc2c1` is recorded as 0.00233 (kinase binding, competitor, MIB/MS competition, item: NPR1; Candida albicans cell lysate; 100 nM; relative to: DMSO).
Under “percent change from baseline”, `C[C@H]1C[C@H]2CSC(N)=N[C@@]2(c2nc(NC(=O)c3ccc(OC(F)F)cn3)cs2)CO1` is recorded as -90.2% (item: Aβ1-40; healthy adults, plasma; 200 mg single dose, 48 h post-dose; relative to: placebo).
`CCCCC1(CCCC)CN(c2ccccc2)c2cc(SC)c(OCC(=O)N[C@@H](C(=O)NCC(=O)O)c3ccccc3)cc2S(=O)(=O)C1` — result for “Asbt mRNA level”: “no effect” (qPCR; male mice, ileum; 1 mg/kg, after mixed meal tolerance test; relative to: PBS).
Under “fasting plasma insulin”, `N#Cc1ccc2c(c1)[C@H]1CCCN(C(=O)c3ccc4[nH]cnc4c3)[C@H]1C2` is recorded as 15.1 mU/L (T2DM patients with overweight or obesity, plasma; oral, 160 mg, day 15 (360 h), multiple dosing, mean).
Under “fold IC50 increase”, `C=CCN(C)CCCCCCOc1ccc(C(=O)c2ccc(Br)cc2)c(F)c1` is recorded as 479 fold (cell viability; Mut6 cells, mouse; together with: exogenous cholesterol; relative to: without cholesterol).
`CC(C)c1c(C(=O)Nc2ccccc2)c(-c2ccccc2)c(-c2ccc(F)cc2)n1CC[C@@H](O)C[C@@H](O)CC(=O)O` gave an HDL-C of 74.7 mg/dL (cynomolgus monkey, female, serum; 40 mg/kg or 25 mg/kg, day 176, 4224 h).
For `NC(=O)c1ccc[n+]([C@@H]2O[C@H](COP(=O)([O-])OP(=O)(O)OC[C@H]3O[C@@H](n4cnc5c(N)ncnc54)[C@H](O)[C@@H]3O)[C@@H](O)[C@H]2O)c1`, “log2 fold change” read -0.207 (binding, MIDAS equilibrium dialysis LC-MS; A2AR-BRIL thermostabilized; concentration not given; relative to: no-protein control).
For `CC1(C)OCCn2c1nc1c(N3CCOCC3)nc(-c3cnc(N)nc3)nc12`, “GSEA enrichment score” read 0.182 (RNA sequencing, item: HALLMARK_EPITHELIAL_MESENCHYMAL_TRANSITION; MB002 tumour; concentration not given; relative to: vehicle, direction not given).
For `N#Cc1ccc(Oc2ccc3c(c2)COB3O)cc1`, “IL6 level difference” read -40.8 (mouse, oxazolone dermatitis, plasma; topical, 20 mg/ear, once daily, unit not given; relative to: vehicle).
For `Cc1n[nH]c2ccc(-c3cc(OC[C@@H](N)Cc4ccccc4)cnc3-c3ccoc3)cc12`, “log2 fold change” read 0.067 (kinase binding, competitor, MIB/MS competition, item: CAK1; Candida albicans cell lysate; 1 µM; relative to: DMSO).
With `Cn1cc([C@H]2C[C@H]3CSC(N)=N[C@@]3(c3ccc(F)cc3F)CO2)cn1` the Aβ40 level was 1.75 ng/mL (item: Aβx-40; Mus musculus wild-type, cerebrospinal fluid; subcutaneous, 3 mg/kg, 6 h).
`c1ccc(-c2n[nH]cc2-c2ccnc3ccccc23)nc1` — result for “log2 fold change”: 1.27 (kinase binding, competitor, MIB/MS competition, item: RIM11; Candida albicans cell lysate; 10 µM; relative to: DMSO).
`O=C(O)C(O)c1ccc(O)c(O)c1` (racemic) — result for “log2 fold change”: -0.546 (binding, MIDAS equilibrium dialysis LC-MS; A2AR-BRIL thermostabilized; concentration not given; relative to: no-protein control).
`COc1ccccc1[C@H](Cn1c(=O)n(C(C)(C)C(=O)O)c(=O)c2c(C)c(-c3ncco3)sc21)OC1CCOCC1` — result for “fractional hepatic DNL”: 19.8 % new palmitate ([1-13C]acetate infusion, isotopomer analysis; overweight or obese healthy men, plasma VLDL-TG palmitate; oral, 20 mg single dose, 9 h post-dose, together with: oral fructose).
The sarcomere length of `O=C(O)CNC(=O)Cc1ccccc1` is reported as 1.68 µm (ventricular cardiomyocytes, C57BL/6 mouse; dose not given, 0.808 s).
`COc1ccc(-c2cncc(N[C@@H](C)c3cccc(NC(=O)c4cncc(C)c4)c3)n2)cc1OC` — result for “delta delta Ct”: -0.578 (item: rno-miR-93-5p; rat SU5416/hypoxia model, lung; dose not given, unit not given; relative to: SU5416/hypoxia vehicle).
With `O=P(O)(O)C(Cl)(Cl)P(=O)(O)O` the VCAM-1 level was 6.24 MFI and 5.45 MFI (endothelial activation, immunostaining; mouse, sham, cortical capillaries; dose not given).
The inhibition of `Oc1ccc(Br)cc1C=NCCN1CCOCC1` is reported as 20.4% (superoxide scavenging; 120 µM).
`CCC(C)C(=O)C(=O)O` (stereo not drawn): “log2 fold change” -0.459 (binding, MIDAS equilibrium dialysis LC-MS; A2AR-BRIL thermostabilized; concentration not given; relative to: no-protein control).
`O=C(OC(C(F)(F)F)C(F)(F)F)N1CCN(Cc2cccc(Oc3ccccc3)c2)CC1` has a k4 of 0.134 min⁻¹ (PET blocking study; rhesus monkey, brain HIP; 0.03 mg/kg, compound pretreatment, together with: [18F]T-401 tracer).
Under “log2 fold change”, `NC(=O)C1=CN([C@@H]2O[C@H](COP(=O)(O)OP(=O)(O)OC[C@H]3O[C@@H](n4cnc5c(N)ncnc54)[C@H](O)[C@@H]3O)[C@@H](O)[C@H]2O)C=CC1` is recorded as -0.987 (binding, MIDAS equilibrium dialysis LC-MS; A2AR-BRIL thermostabilized; concentration not given; relative to: no-protein control).
`NC(=O)c1cnc2[nH]ccc2c1N[C@@H]1[C@@H]2CC3C[C@H]1C[C@@](O)(C3)C2` — result for “CD4+ naive T-cell change”: -0.7% (flow cytometry; Japanese healthy men, blood; oral, 30 mg twice daily, 72 h after day 7 dose; relative to: baseline).
For `CCCC(=O)SCCNC(=O)CCNC(=O)[C@H](O)C(C)(C)COP(=O)(O)OP(=O)(O)OC[C@H]1O[C@@H](n2cnc3c(N)ncnc32)[C@H](O)[C@@H]1OP(=O)(O)O`, “log2 fold change” read -0.328 (binding, MIDAS equilibrium dialysis LC-MS; A2AR-BRIL thermostabilized; concentration not given; relative to: no-protein control).
`O=C1O[C@H]([C@@H](O)CO)C(O)=C1O`: “ferric reducing power” 79.5% (FRAP; 200 µM).
Under “log2 fold change”, `Cc1cn([C@H]2C[C@H](O)[C@@H](COP(=O)(O)O)O2)c(=O)[nH]c1=O` is recorded as 0.199 (binding, MIDAS equilibrium dialysis LC-MS; A2AR-BRIL thermostabilized; concentration not given; relative to: no-protein control).
For `CC[C@H]1[C@@H](O)[C@@H]2[C@H](CC[C@]3(C)[C@@H]([C@H](C)CCC(=O)O)CC[C@@H]23)[C@@]2(C)CC[C@@H](O)C[C@@H]12`, the plasma triglycerides was 65 ± 7 mg/dL (C57BL/6J mouse, AMLN diet NASH model; dose not given, terminal).

A few entries again:
Under “DPPH radical scavenging”, `Cc1cc(C(C)(C)C)c(O)c(C(C)(C)C)c1` is recorded as 60 ± 0.38% (DPPH; methanol; concentration not given, 60 min).
`NC(=O)c1cnc2[nH]ccc2c1N[C@@H]1[C@@H]2CC3C[C@H]1C[C@@](O)(C3)C2` — result for “CD4+ naive T-cell change”: -0.7% (flow cytometry; Japanese healthy men, blood; oral, 30 mg twice daily, 72 h after day 7 dose; relative to: baseline).
`O=C(OC(C(F)(F)F)C(F)(F)F)N1CCN(Cc2cccc(Oc3ccccc3)c2)CC1` has a k4 of 0.134 min⁻¹ (PET blocking study; rhesus monkey, brain HIP; 0.03 mg/kg, compound pretreatment, together with: [18F]T-401 tracer).
For `NC(=O)c1ccc[n+]([C@@H]2O[C@H](COP(=O)([O-])OP(=O)(O)OC[C@H]3O[C@@H](n4cnc5c(N)ncnc54)[C@H](O)[C@@H]3O)[C@@H](O)[C@H]2O)c1`, “log2 fold change” read -0.207 (binding, MIDAS equilibrium dialysis LC-MS; A2AR-BRIL thermostabilized; concentration not given; relative to: no-protein control).
